Published values gathered from unrelated publications.
A part holds a random share of what one study measured.

Set 1 — technique: RNA Bind-n-Seq; molecule type: RNA; sample: in vitro; tested at: 200 nM; notes: whole 134-nt RNA, ends assumed; added: 150 mM KCl; relative to: input library; reading: higher = stronger binding
Target: Ras GTPase-activating protein-binding protein 1, full length (G3BP1, Homo sapiens, UniProt Q13283)
Chain of UniProt Q13283 (whole entry, looked up): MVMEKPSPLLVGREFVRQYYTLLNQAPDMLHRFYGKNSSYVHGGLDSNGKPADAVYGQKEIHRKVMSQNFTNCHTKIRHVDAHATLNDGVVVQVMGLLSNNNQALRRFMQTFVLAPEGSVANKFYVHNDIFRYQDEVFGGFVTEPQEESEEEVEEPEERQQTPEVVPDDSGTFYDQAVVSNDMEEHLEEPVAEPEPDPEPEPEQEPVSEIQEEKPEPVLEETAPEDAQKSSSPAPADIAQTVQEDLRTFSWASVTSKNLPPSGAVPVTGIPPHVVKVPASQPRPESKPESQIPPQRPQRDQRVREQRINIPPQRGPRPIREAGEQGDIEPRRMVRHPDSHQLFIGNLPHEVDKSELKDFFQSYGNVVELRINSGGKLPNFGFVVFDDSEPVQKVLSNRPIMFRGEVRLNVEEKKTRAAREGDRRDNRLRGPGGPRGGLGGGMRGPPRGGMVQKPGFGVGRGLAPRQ
Constant ends, left off below: GGGAGUUCUACAGUCCGACGAUC … UGGAAUUCUCGGGUGUCAAGG
The log2 enrichment of `UAACUUUAGAGGAGAAUCUGAUGGAUAUGGCAGUGGACGUGGAUUUGGGGAUGGCUAUAAUGGGUAUGGAGGAGGACCUGGAGGUGGCAA` is reported as 0.542.
With `ACCAUGCAGGUGGGCAUCUUUGGGAAGUGGGGCAAGGGGGGGAUAGGGAGGGGGGUAAAAAUUUGGGAACAGGUGGUCCCAGGUCGUUUC` the log2 enrichment was 1.28.
For `GUCCUGUGCUACACAUCGUAUGUACCGAAUCGGAAAAAGGGGAAAAAGGAAAAAGGGGAAAGUAUUAUGUUACGCCGUUCGGAUCUGCAC`, the log2 enrichment was -0.521.
With `CACAGACAACACGCACCCACACAGACACAGAGGGAAGGGAAAGGGAUGGGGACAGGGUGCACAGCAGGGCGGGGUAGGACCCCAGCCCCU` the log2 enrichment was 1.75.
`CUGUGCUACACAUCGUAUGUACCGAAUCGGGGAAAGGGGUUUUUUUGGGGAAAAAAAGGGGAAAGUAUUAUGUUACGCCGUUCGGAUCUG` gave a log2 enrichment of -0.271.
`UGGCCCUGGUGGCAUGCGUGGAGGAAGAGGUGGCCUCAUGGAUCGUGGUGGUCCCGGUGGAAUGUUCAGAGGUGGCCGUGGUGGAGACAG` has a log2 enrichment of 0.377.
The log2 enrichment of `AGUCCUGUGCUACACAUCGUAUGUACCGAAUCGGAAAAAGGAAAAAGGAAAAAGGGGAAAGUAUUAUGUUACGCCGUUCGGAUCUGCACU` is reported as -1.13.
For `CACAGACAACACGCACCCACACAGACACAGAGGGAAGGGGUUGGGAUGGGGACAGGGUGCACAGCAGGGCGAGGUAGGACCCCAGCCCCU`, the log2 enrichment was 2.
With `UUUUAAAGUGUUCUCCACCACACUUGGGCAUUUAUCUGUUUCUUUAAAUGGCCUUCUCUGUUUCUUGUUUGCAGGCAGCUAUCAAUGGUG` the log2 enrichment was 0.162.
For `UGGCCCUGGUGGCAUGCGGGGAGGAAGAGGUGGCCUCAUGUAUCGUGGUGGUCCCGGUGGAAUGUUCAGAGGUGGCCGUGGUGGAGACAG`, the log2 enrichment was 0.0416.

Set 2 — technique: universal PBM; molecule type: double-stranded DNA, one strand shown; sample: in vitro; tested at: not given; reading: higher = stronger binding
Target: Sal-like protein 4, full length isoform B (SALL4, Homo sapiens, UniProt Q9UJQ4-2, residues 1-616)
Notes: 8-mer, flanks averaged, mean of replicates
For `AATAGTAG`, the E-score was 0.248.
`CTACAGAA` gave an E-score of 0.125.
The E-score of `GCGATTAA` is reported as 0.0899.
`AGACACGC` gave an E-score of -0.175.
The E-score of `AGGCCGCC` is reported as -0.412.
The E-score of `GCTGTCCC` is reported as -0.192.
With `GCGGCGTA` the E-score was -0.274.
For `ACATGAGT`, the E-score was 0.106.
`AGTGTGGG` has an E-score of -0.0276.
The E-score of `TACTAGTA` is reported as 0.212.
The E-score of `ATGGACAA` is reported as 0.145.
With `ATAACGGC` the E-score was 0.11.
With `ACTTTCGA` the E-score was 0.132.
For `CCACTCAA`, the E-score was 0.0634.
The E-score of `ACAGCTTG` is reported as -0.136.
`AGAGGTGG` gave an E-score of -0.0676.
The E-score of `CTTGAGTC` is reported as -0.0656.
`AAATCGAT` has an E-score of 0.0824.
The E-score of `AGAAACCT` is reported as -0.0896.
The E-score of `CCTCGTCC` is reported as -0.264.
For `AGGCTCCG`, the E-score was -0.251.
`TAGTTCCA` gave an E-score of 0.124.
`TAACATTA` gave an E-score of 0.375.
With `ATCTGCGC` the E-score was -0.156.
For `AAAGTATG`, the E-score was 0.22.

Set 3 — technique: RNA Bind-n-Seq; molecule type: RNA; sample: in vitro; tested at: 365 nM; relative to: no-protein control; reading: higher = stronger binding
Target: RNA binding protein fox-1 homolog 2, RRM domain, GST-SBP tag (RBFOX2, Homo sapiens, UniProt O43251-10, residues 100-194)
Notes: natural RNA segment, single round, ends assumed
Constant ends, left off below: GGGAGUUCUACAGUCCGACGAUC … UGGAAUUCUCGGGUGCCAA
Target sequence (chain): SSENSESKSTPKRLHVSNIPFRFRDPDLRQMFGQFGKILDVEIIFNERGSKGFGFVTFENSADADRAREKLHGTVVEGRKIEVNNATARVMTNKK
`AAUCUCGUGACCAGUGAUUUGGAUUUUAUUUUGUAUUUACAGGGUCUGUCAUUAAUAAUAAUUAACCCCCCUCCCCUCAUGGAACACUCCCGUUUGUACCUCAACAGAUG` — result for “RBNS enrichment (R)”: 0.403.
`UAAAUGUCUUGCUUACAGUGGUGUUGCCCCGACUCCAGAUCAGCCUGGGCCACCUUGGGAAGCCAUCCUUGAGGCCCUUGCUCCAAUAGGAGAGGUAUUGUGGAUUCACA`: “RBNS enrichment (R)” 0.259.
`AGAGUUGGGGACCCCUGUUGGCCACUUGUUGACCUCUCAUAGUGGUGCUUGGGCCAGGUCUUCUCAAUGGAAGGGGAAUCCCUUAUAGGGGAGAGGGAACAGAGCCCAGU`: “RBNS enrichment (R)” 0.462.
`GAUUCCUCUGGCCAAGAGUACAGCUUGUGAACUCACCCAAGUGCAUGAGAGUUUUUCUAAAUCUACAUGAAAAACAAAUUUUCCUGGGUUUCAGUACAUUGGCUUUUACA`: “RBNS enrichment (R)” 8.
Under “RBNS enrichment (R)”, `GGCUUUGGGUGCACUGUGAAGUUUCACAGGCAUCAAAACCCUGAUGGAGCUAUCCCCUCCUCCCUCUUUUCUUUGCUUCCAGGGAUAUCCUUGCCUACCUCUUUCUAUCU` is recorded as 0.558.
`UGUGGGACCCUGGCCAAGUGCAGGAAUGGGCCAUGCCGUCUCACCCACAGUAUCACACGUGGAACCGCAGACAGGGCCCAGAAGCUUUAGAGGUAUGAGGCUGCAGAACC` — result for “RBNS enrichment (R)”: 0.373.
`CUCCAAUAGAGGCCUAUCCUGACUAGAGAAGACUGGUGAGGGUUGAUACGGGAUUUGAAUUCCCAGAUGGGCCCACAAGUGCUAUUUAUUGUAUAUUUAUUGUUUGGAUG` — result for “RBNS enrichment (R)”: 0.768.
For `GGCAUGUAUCCUGGCUGAAGCGCUGCAAUCUUACACUAGCCACAGGGUACUGUUUUGAGCCAAAGGCUGAUACUUAAUUGAAGAGGGAAAAUGCAGAUUUGGGGACAAAG`, “RBNS enrichment (R)” read 0.849.
`UCUCCUCAUUGUUCACAGCCUGUUGGUCUCGAACACUCAACAUAUGAUUGCUCGAUCACUUUAGAUAGUAAGUAGGCUAUUUACAUAAUGAGCUAACCUCAGAGAGAAGC` — result for “RBNS enrichment (R)”: 0.375.

Set 4 — technique: RNA Bind-n-Seq; molecule type: RNA; sample: in vitro; tested at: not given; relative to: input RNA pool; reading: higher = stronger binding
Target: RING finger protein unkempt homolog, zinc fingers 1-6, GST-SBP tag (UNK, Homo sapiens, UniProt Q9C0B0, residues 30-357)
Chain of UniProt Q9C0B0 (30-357, looked up): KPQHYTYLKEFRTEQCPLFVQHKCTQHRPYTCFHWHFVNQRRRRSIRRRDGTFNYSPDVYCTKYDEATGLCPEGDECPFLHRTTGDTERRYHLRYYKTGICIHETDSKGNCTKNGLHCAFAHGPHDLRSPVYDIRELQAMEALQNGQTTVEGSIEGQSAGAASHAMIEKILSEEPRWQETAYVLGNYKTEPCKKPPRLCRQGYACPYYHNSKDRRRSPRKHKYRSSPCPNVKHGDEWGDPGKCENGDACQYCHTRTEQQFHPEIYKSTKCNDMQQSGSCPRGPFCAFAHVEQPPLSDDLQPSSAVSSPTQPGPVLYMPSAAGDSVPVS
Notes: RNA with constant flanks, human and mouse sites, ends assumed
Constant ends, left off below: GGGAGUUCUACAGUCCGACGAUC … CAACAGAGGAUUGAGCAUCA
For `UUUGAUGUCAUGGUGAUGCCCAAUCUCUAUGGCAACAUCGUCAACAAUGUCUGCGCGGGACUGGUCGGGGGCCCAGGCCUUGUGGCUGGGGCCAACUAUGGCCAUGUGUACGCGGUGUUU`, the bound/input enrichment was 0.178 ratio.
For `UGUGGCCUCUCUGAAGAAAAAGCCGUAGAGAAAUUUGGGGAAGAAAAUAUUGAAGUUUACCAUAGUUUCUUUUGGCCAUUGGAAUGGACAGUCCCAUCCCGGGAUAACAACAAAUGUUAU`, the bound/input enrichment was 0.168 ratio.
For `ACUGAUGGCACGGGCAGAAUCACAUUUAAGAAAAAUGGUUUGGAACACUUUUUAAUAAAAAAUUGUAAAAUCAGUUUCCAGUGUGGUCAAAAUUAGAAUGUAAAGGAAAGCAUUUUUAAG`, the bound/input enrichment was 0.827 ratio.
`UUUUUCCUGCCCAAAGGAGCCUACAUUUAUAAUACACUAAUGGAAUUUAUCAGGAGUGAAUAUAGGAAAAGAGGGUUCCAGGAGGUCGUCACUCCCAACAUCUUCAAUAGCCGGCUCUGG` has a bound/input enrichment of 0.54 ratio.
With `CACUGGAUUGCUCUGCAACCAAAGAAAGCAAUAUGGAAUGAAAAAACUCAUUCACUUUUGUCUUAUUUUCUUUUAAGGUGUAUUGGCAUGUAAUUUGCAUAGAGAAGGUCCUCUGGUUAG` the bound/input enrichment was 0.167 ratio.
With `UCUCGCUCUCCUUUUUUUUUUCUUUUUUUCUUUUUCUUUUUUUUUUCUUUUUUUAAAUACUAGCAACUUUCAUCCUUUGGAACUUGUGCUGAAAAAAGAAGAGUCAGCAAAUACUACUGA` the bound/input enrichment was 0.915 ratio.
With `CACGUGUCUGCAGUACUUGAUGUGGACUACUCUCCCACUGGGAAGGAAUUUGUGUCUGCCAGCUUUGAUAAGUCUAUUAGAAUCUUUCCUGUGGACAAGAGCCGAAGCAGGGAAGUGUAU` the bound/input enrichment was 0.413 ratio.
The bound/input enrichment of `AAUCAGUUUGAGACAGAAUUAUGAAUAGAGAUCUAUCAGUAACUUUUGCAUUUCACACCAUAGCUAGAGUUUGGCUCACCAAUAACUUGUAUAUAUUUUGAAUGGGAAACACAUGGGUGC` is reported as 4.11 ratio.
`UUAAUCCCCUUUACUGCUCCCCCACUUCUCAUGGUAAUAACAAAGUCUUAUAUCCCCGUCCUAGCUUUCACUCAGAUGGCUUAUGGAGCCGGUUUCCUAGCUUUCUUGGGAGGGAUCAGA` gave a bound/input enrichment of 0.375 ratio.
`UCCAGUCUUACACUUAUGGUUGGCCUCAAAUCUAUUGCAUUUAUGAUAAUGUAUUAUAUCUAGUUGAGUUUAAUAUUUUUUUAUUAGCCUGUAAAUAAAGAUGGCAUCUUCUACAUUAAA` gave a bound/input enrichment of 12.2 ratio.
`GGGCGGCCGGUGGGGGAAUCCCCUGCCUUGGCCUUGCCUCCCCUUCCUGCCACGUGCCCCUAGUUAUUUUUUUUUUUUUAACACCAUGUGAUUAAGGUCGGCGCUGCCUCCCCCGACCCA` has a bound/input enrichment of 35 ratio.

Some of these lines once more (set 1):
For `UGGCCCUGGUGGCAUGCGGGGAGGAAGAGGUGGCCUCAUGUAUCGUGGUGGUCCCGGUGGAAUGUUCAGAGGUGGCCGUGGUGGAGACAG`, the log2 enrichment was 0.0416.
`UGGCCCUGGUGGCAUGCGUGGAGGAAGAGGUGGCCUCAUGGAUCGUGGUGGUCCCGGUGGAAUGUUCAGAGGUGGCCGUGGUGGAGACAG` has a log2 enrichment of 0.377.
With `CACAGACAACACGCACCCACACAGACACAGAGGGAAGGGAAAGGGAUGGGGACAGGGUGCACAGCAGGGCGGGGUAGGACCCCAGCCCCU` the log2 enrichment was 1.75.
`CUGUGCUACACAUCGUAUGUACCGAAUCGGGGAAAGGGGUUUUUUUGGGGAAAAAAAGGGGAAAGUAUUAUGUUACGCCGUUCGGAUCUG` gave a log2 enrichment of -0.271.
With `ACCAUGCAGGUGGGCAUCUUUGGGAAGUGGGGCAAGGGGGGGAUAGGGAGGGGGGUAAAAAUUUGGGAACAGGUGGUCCCAGGUCGUUUC` the log2 enrichment was 1.28.
